{"data": "Measured values from different studies", "B1": "NUDT3 (Homo sapiens, UniProt O95989); chain MMKLKSNQTRTYDGDGYKKRAACLCFRSESEEEVLLVSSSRHPDRWIVPGGGMEPEEEPSVAAVREVCEEAGVKGTLGRLVGIFENQERKHRTYVYVLIVTEVLEDWEDSVNIGRKREWFKIEDAIKVLQYHKPVQASYFETLRQGYSANNGTPVVATTYSVSAQSSMSGIR", "B2": "acsA (Pseudomonas chlororaphis, UniProt Q5CD72); chain MRDYEHVVESFDYLQSATQDLHGELTALNACVECCDRHAHGEAVALYCEAQDGHAERYRFRDLQRQAARFGNFLREQGVKPGDRVAGLMPRTVELLIAILGTWRIGAVYQPLFTAFGPKAIEQRLNCSNARWIVTDPHNRPKLDDVTDCPSIVVTGGAPQNPADHHFWSALNRQADDCAPVLLDASAPFLLMCTSGTTGPAKPLEVPLSAILAFKGYMRDAIDLRADDRFWNLADPGWAYGLYYAVTGPLACGYATLFYDGPFTVESTRHIIAKYAINNLAGSPTAYRFLIAAGAEFADAVRGRLRAVSSAGEPLNPQVVRWFAEQLGVVIHDHYGQTEIGMVLCNHHGLRHPVREGSAGYAVPGYRIVVLDKAHRELPAGQPGVLAVDRERSPLCWFDGYLGMPTQAFAGRYYLSGDIVELNDDGSISFVGRNDDLITTSGYRVGPFDVESALIEHPAVVEAAVIGKPDPQRTELIKAFVVLNTPYLPSPELAEELRLHVRQRLAAHAYPREMEFVDHLPKTPSGKLQRFILRNQEIAKQQALG", "B3": "enzyme (Pseudomonas aeruginosa, UniProt Q9HTP2); chain MTTLTRADWEARAKDLKIEGRAFVNGEYSNAASGETFDCLSPVDGRFLAKVASCDLADAEQAVKVARNAFDSGAWSRLAPAKRKQTMIRFADLLLENAEELALLETLDMGKPISDSLHIDVASAANSLRWSAEAIDKIYDEVAATPHAELGLVTREPVGVVAAIVPWNFPLLMSCWKLGPALATGNSVILKPSEKSPLTAIRIAQLAVEAGIPKGVFNVLPGYGHTVGKALALHMDVDTLVFTGSTKIAKQLMVYAGESNMKRVWLEAGGKSPNIVFADAPDLKAAAEAAAGAIAFNQGEVCTAGSRLLVERSIKDKFLPLVIEALKGWKPGNPLDPETNVGALVDTQQMNTVLSYIEAGHNDGAKLVAGGKRTLEETGGTYVEPTIFDGVTNAMKIAREEIFGPVLSVIEFEDAEEAVRIANDTPYGLAAAVWTSNLSKAHLTAKALRAGSVWVNQYDGGDMTAPFGGFKQSGNGRDKSLHAFDKYTELKATWIKL", "B4": "enzyme (UniProt I4BTU9); chain MISLDDIRQARERIGSWIHRTPIFSSATFSRMAGNEVYLKAENLQKSGAFKFRGAMNFMLSMSDDERKRGVVTGSSGNHGQALACAAKLLGVKAVVVVPLDASPAKVAAIEGYGAKVERCGHSSTERIAKAMEIAENLGMTFVPPFDHPWIMAGQGTAGLEIAEDMQDVDAVLVPCGGCGLISGVATALKESLKGVKVYGVEPETSNSTYLSFKAGRIVELHDIHTIADGLRTASPGSITFPVVQRYVDDILLVSEEEIRNAMVLLLERAKLLVEPSGAVPAAALLYGKVPLKGKRVVALLSGGNVDLAALCKWIEEVRTGN", "note": "Compare with care: the assays were run in different laboratories.", "sequence of UniProt Q02745 (whole entry, looked up)": "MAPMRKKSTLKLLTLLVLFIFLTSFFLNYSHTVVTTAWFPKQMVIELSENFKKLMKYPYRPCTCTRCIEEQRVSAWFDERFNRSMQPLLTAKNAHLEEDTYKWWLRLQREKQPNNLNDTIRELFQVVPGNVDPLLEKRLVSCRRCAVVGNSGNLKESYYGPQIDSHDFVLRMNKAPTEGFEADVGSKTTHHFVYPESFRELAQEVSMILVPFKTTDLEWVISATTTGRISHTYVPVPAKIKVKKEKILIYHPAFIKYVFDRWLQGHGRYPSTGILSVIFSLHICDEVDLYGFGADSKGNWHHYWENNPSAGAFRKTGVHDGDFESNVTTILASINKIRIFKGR", "sequence of UniProt P0AE52 (whole entry, looked up)": "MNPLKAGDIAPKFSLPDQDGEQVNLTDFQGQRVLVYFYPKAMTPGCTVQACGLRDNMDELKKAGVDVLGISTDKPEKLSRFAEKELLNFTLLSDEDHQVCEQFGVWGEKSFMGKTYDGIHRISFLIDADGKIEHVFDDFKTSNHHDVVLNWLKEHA"}
{"Substance": "bcp (Escherichia coli, UniProt P0AE52)", "target or system": "CC(C)(C)OO", "test": "steady-state kinetics", "conditions": "pH 7, 25 °C, apparent", "measurement": "Km", "value": "574 µM"}
{"Substance": "GSGAGIATEV", "target or system": "human MAGI1-2/6 PDZ construct (MBP fusion)", "test": "automated holdup", "system": "peptide, crude extract", "conditions": "concentration not given, corrected by standard peak, unit not given", "scale": "relative to: biotin control resin, higher = stronger binding", "measurement": "binding intensity", "value": -0.00635}
{"Substance": "enzyme (Cyanidioschyzon merolae, UniProt M1V8C6)", "target or system": "O=C(O)[C@H](O)CO", "test": "steady-state kinetics", "conditions": "pH 7.8, 30 °C", "measurement": "Km", "value": "98 µM"}
{"Substance": "GSGAGRETEV", "target or system": "human MAGI1-2/6 PDZ construct (MBP fusion)", "test": "automated holdup", "system": "peptide, crude extract", "conditions": "concentration not given, uncorrected, unit not given", "scale": "relative to: biotin control resin, higher = stronger binding", "measurement": "binding intensity", "value": 0.305}
{"Substance": "enzyme (Streptomyces avermitilis, UniProt Q82IV1)", "target or system": "CC(C)=CCC/C(C)=C/CC/C(C)=C/CO[P@@](=O)(O)OP(=O)(O)O", "test": "steady-state kinetics", "conditions": "pH 7, 30 °C, refolded from inclusion bodies, with: Mg2+", "measurement": "Km", "value": "0.125 µM"}
{"Substance": "GCAGGCAGGCAG (dsDNA)", "target or system": "Fibroin-modulator-binding protein-1 99-193 (Bombyx mori, UniProt Q5FBS0)", "test": "ITC", "system": "double-stranded DNA, one strand shown", "measurement": "Kd", "value": "10.8 µM"}
{"Substance": "HNL E79H/H103V/K236M/T11G (Hevea brasiliensis)", "target or system": "CC(=O)Oc1ccc([N+](=O)[O-])cc1", "test": "steady-state kinetics", "conditions": "pH 7.2, 22 °C", "measurement": "Km", "value": "650 µM"}
{"Substance": "ST3GAL1 (Sus scrofa, UniProt Q02745)", "target or system": "CC(=O)N[C@H]1[C@H]([C@H](O)[C@H](O)CO)O[C@](OP(=O)(O)OC[C@H]2O[C@@H](n3ccc(N)nc3=O)[C@H](O)[C@@H]2O)(C(=O)O)C[C@@H]1O", "test": "steady-state kinetics", "measurement": "Km", "value": "85.9 µM"}
{"Substance": "B1 (NUDT3)", "target or system": "Nc1ncnc2c1ncn2[C@@H]1O[C@H](COP(=O)(O)OP(=O)(O)OP(=O)(O)OP(=O)(O)OP(=O)(O)OC[C@H]2O[C@@H](n3cnc4c(N)ncnc43)[C@H](O)[C@@H]2O)[C@@H](O)[C@H]1O", "test": "steady-state kinetics", "conditions": "with: Mg2+", "measurement": "Km", "value": "24 µM"}
{"Substance": "enzyme (Bacteroides fragilis, UniProt Q5LAD6)", "target or system": "C[C@@H]1O[C@@H](Oc2ccc([N+](=O)[O-])cc2)[C@@H](O)[C@H](O)[C@@H]1O", "test": "steady-state kinetics", "conditions": "pH 7, 37 °C", "measurement": "Km", "value": "270 µM"}
{"Substance": "B2 (acsA)", "target or system": "C#CCCC(=O)O", "test": "steady-state kinetics", "conditions": "pH 7", "measurement": "Km", "value": "1200 µM"}
{"Substance": "B3 (enzyme)", "target or system": "N=C(N)NCCCC=O", "test": "steady-state kinetics", "conditions": "pH 8, 30 °C", "measurement": "Km", "value": "200 µM"}
{"Substance": "B4 (enzyme)", "target or system": "N[C@@H](CO)C(=O)O", "test": "steady-state kinetics", "conditions": "pH 8, 30 °C", "measurement": "Km", "value": "5440 µM"}
{"note": "Some of these lines once more:"}
{"Substance": "ST3GAL1 (Sus scrofa, UniProt Q02745)", "target or system": "CC(=O)N[C@H]1[C@H]([C@H](O)[C@H](O)CO)O[C@](OP(=O)(O)OC[C@H]2O[C@@H](n3ccc(N)nc3=O)[C@H](O)[C@@H]2O)(C(=O)O)C[C@@H]1O", "test": "steady-state kinetics", "measurement": "Km", "value": "85.9 µM"}
